# Measurements from different studies.
# Protocols differ between the studies behind these lines. ± gives the spread as reported.
Compound,assay,test system,conditions,how to read,endpoint,value
O=C([O-])CN1CCN(CC(=O)[O-])CCN(CC(=O)[O-])CCN(CC(=O)[O-])CC1.[111In+3],,mouse serum,"24 h, 25 °C, with: 111In",,radiometal bound to chelator,89%
C[C@H](CN(C)Cc1ccccc1)NC(=O)c1ccc(-c2noc(C(F)(F)[18F])n2)cc1,PET,"Sprague-Dawley rat, female, brain and muscle","intravenous, 30 min",relative to: brain SUV over muscle SUV,brain-to-muscle ratio,2.66 ± 0.22
Cn1c(=O)oc2ccc(-c3ccc(CC(C#N)NC(=O)C4CNCCCO4)c(F)c3)cc21 (stereo not shown),,human,"oral, 40 mg once daily, TEAE, multiple ascending dose",,bilirubin increased incidence,11.1%
CN(C)c1cc(CN2CCCCC2)c(O)c2c1C[C@H]1C[C@H]3[C@H](N(C)C)C(O)=C(C(N)=O)C(=O)[C@@]3(O)C(O)=C1C2=O,,"cynomolgus monkey, plasma","intravenous, 5 mg/kg",,Tmax,0.2 h
[11CH3]c1ccc2nc(C3CCC3)n(-c3ccc4[nH]ncc4c3)c2n1,extrapolated from mouse,"standard human, Upper large intestine wall",,,absorbed dose,5.8 µSv/MBq
C=C(c1ncc(C(=O)O)cn1)c1cc2c(cc1C)C(C)(C)CCC2(C)C,,"Sprague-Dawley rat, male, plasma","oral, 100 mg/kg, 9 h, sesame oil vehicle",,HDL level,48 ± 20 mg/dL
O=C(O)C1OC(OC2CCC(C(O)CC3c4c(F)cccc4-c4cncn43)CC2)C(O)C(O)C1O (stereo not shown),,"human, urine","oral, 200 mg, [14C]-navoximod dosed",relative to: dose,urinary excretion,8.74%
CCCC[C@H](NC(=O)CNC(=O)CNC(=O)CN1CCN(CC(=O)O)CCN(CC(=O)O)CC1)C(=O)N[C@H]1CC(=O)NCCCC[C@@H](C(N)=O)NC(=O)[C@H](Cc2c[nH]c3ccccc23)NC(=O)[C@H](CCCNC(=N)N)NC(=O)[C@@H](Cc2ccccc2)NC(=O)[C@H](Cc2c[nH]cn2)NC1=O [copper-64 labelled],,"female C57 mouse, B16/F1 melanoma","intravenous, 0.037 MBq, 2 h",relative to: tumour over kidneys,uptake ratio,2.52
Cc1[nH]nc2c1N=C(c1ccccc1Cl)c1cnc(N3CCOCC3)cc1N2,,"human male, urine","oral, 10 mg, 0-72 h",relative to: dose,urinary excretion,0.28%
Cc1ccc(-c2ccc(-c3cc4sccc4o3)cn2)nc1,TCSPC,benzene,,,radiative decay rate constant,0.69 ns⁻¹
CC(=O)N1CCC(NC(=O)Nc2ccc(OC(F)(F)F)cc2)CC1,,"male C57BL/6J mice, blood",1 mg/kg,,time to full blood elimination,≤ 168 h
O=C([O-])CN1CCN(CC(=O)[O-])CCN(CC(=O)NC[C@H]2CC[C@H](C(=O)N[C@H](Cc3cnc4ccccc4c3)C(=O)NCCCC[C@H](NC(=O)N[C@@H](CCC(=O)O)C(=O)O)C(=O)O)CC2)CCN(CC(=O)[O-])CC1.[64Cu+2],,prostate cancer patients,"140 MBq, 24 h post-injection, sample A cm from patient",,radiation exposure rate,< 2.4 µSv/h
N=C(N)NCCC[C@@H]1NC(=O)[C@H](Cc2c[nH]c3ccccc23)NC(=O)[C@@H](CC2CCCCC2)NC(=O)[C@@H]2CCCN2C(=O)[C@@H](NC(=O)CCc2ccccc2)CCCNC1=O,two-compartment model,"C57BL/6J mice, plasma","subcutaneous, 1 mg/kg",,alpha rate constant,0.03 min⁻¹
CCCC[C@@H]1NC(=O)[C@@H](NC(=O)[C@H](CCC(=O)O)NC(=O)CNC(=O)CN2CCN(CC(=O)O)CCN(CC(=O)O)CCN(CC(=O)O)CC2)CCCCNC(=O)C[C@@H](C(N)=O)NC(=O)[C@H](C(C)C)NC(=O)[C@@H]2CCCN2C(=O)[C@H](CCCNC(=N)N)NC(=O)CNC(=O)[C@H](Cc2c[nH]c3ccccc23)NC(=O)[C@H](CCCNC(=N)N)NC(=O)[C@@H](Cc2ccccc2)NC(=O)[C@H](Cc2c[nH]cn2)NC(=O)[C@H](CCC(=O)O)NC1=O [gallium-67 labelled],,"C57 mice, B16/F1 flank melanoma, intestine","intravenous, 0.037 MBq/mouse, 4 h",,intestine uptake,0.35 ± 0.16 %ID
CCC/C(=C\C1=C(F)C(=O)c2ccccc2C1=O)C(=O)N(CC)CC,,mouse plasma,"1 µM, 37 °C",,t1/2,> 165 h
C=C(c1cc(F)c(C(=O)O)c(F)c1)c1cc2c(cc1C)C(C)(C)CCC2(C)C,,"Sprague-Dawley rat, male, plasma","oral, 100 mg/kg, 6 h, sesame oil vehicle",,HDL level,52 ± 10.8 mg/dL
Cc1ccccc1/N=N/c1ccc(/N=N/c2c(O)ccc3ccccc23)c(C)c1,,rat whole blood QC samples,"16.0 µg/L, 4 h, room temperature, short-term stability",,measured concentration,16 µg/L
COC(=O)C(CSC1CC(=O)N(CCC(=O)O)C1=O)NC(=O)CCC(NC(=O)c1ccc(NCc2cnc3nc(N)nc(N)c3n2)cc1)C(=O)O (stereo not shown),,"male beagle dogs, plasma","intravenous and subcutaneous, range over both routes",,terminal half-life,1.28 to 2.14 h
C=C(c1ccc(C(=O)O)c(F)c1)c1cc2c(cc1C)C(C)(C)C=CC2(C)C,,"Sprague-Dawley rat, male, plasma","oral, 100 mg/kg, 24 h, sesame oil vehicle",,HDL level,61 ± 23.4 mg/dL
Oc1ccc2ccccc2c1/N=N/c1ccccc1,,"Sprague-Dawley rats both sexes, whole blood","oral, 50 mg/kg",,absorption rate constant,4 h⁻¹
CC[C@H](C)[C@H](N)C(=O)N[C@@H](CC(C)C)C(=O)N1CCC[C@H]1C(=O)N[C@@H](Cc1c[nH]c2ccccc12)C(=O)N[C@@H](CCCCN)C(=O)N[C@@H](Cc1c[nH]c2ccccc12)C(=O)N1CCC[C@H]1C(=O)N[C@@H](Cc1c[nH]c2ccccc12)C(=O)N[C@@H](Cc1c[nH]c2ccccc12)C(=O)N1CCC[C@H]1C(=O)N[C@@H](Cc1c[nH]c2ccccc12)C(=O)N[C@@H](CCCNC(=N)N)C(=O)N[C@@H](CCCNC(=N)N)C(N)=O,fluorescence spectroscopy,10 mM TES buffer,"pH 7.4, excitation 295 nm",,Trp emission maximum,357 nm
NC[C@@H](C(=O)Nc1ccc(-c2cn[nH]c2)cc1)c1ccccc1,"OECD 405, refers to: Cornea",New Zealand White rabbit,"topical, 0.1 %, 73 h, day 4",direction not given,ocular irritation score,0
Cc1[nH]c(/C=C2\C(=O)Nc3ccc(F)cc32)c(C)c1NC(=O)CCN1CCN(C)CC1,,"Beagle dog, both sexes, plasma","oral, 3 mg/kg",,terminal half-life,11 ± 2.57 h
CC(C)(C)c1nc(-c2cccc(NS(=O)(=O)c3c(F)cccc3F)c2F)c(-c2ccnc(N)n2)s1.Cc1[nH]c2ccccc2c1CCNCc1ccc(/C=C/C(=O)NO)cc1,,,"pH 1.2, slurry",,phase stability time,≤ 24 h
C=CC(=O)Nc1cc(Nc2nccc(-c3cn(C4CC4)c4ccccc34)n2)c(OC)cc1N(C)CCNC,radiolabelled metabolite profiling,"human male, plasma","oral, 110 mg, 24 h",,plasma concentration,52.3 ng/g

# Some of these lines once more:
Compound,assay,test system,conditions,how to read,endpoint,value
Cn1c(=O)oc2ccc(-c3ccc(CC(C#N)NC(=O)C4CNCCCO4)c(F)c3)cc21 (stereo not shown),,human,"oral, 40 mg once daily, TEAE, multiple ascending dose",,bilirubin increased incidence,11.1%
CC(C)(C)c1nc(-c2cccc(NS(=O)(=O)c3c(F)cccc3F)c2F)c(-c2ccnc(N)n2)s1.Cc1[nH]c2ccccc2c1CCNCc1ccc(/C=C/C(=O)NO)cc1,,,"pH 1.2, slurry",,phase stability time,≤ 24 h
C=C(c1ncc(C(=O)O)cn1)c1cc2c(cc1C)C(C)(C)CCC2(C)C,,"Sprague-Dawley rat, male, plasma","oral, 100 mg/kg, 9 h, sesame oil vehicle",,HDL level,48 ± 20 mg/dL
